Published values gathered from unrelated publications.
Compare with care: the assays were run in different laboratories.
Organism: Klebsiella pneumoniae

Compound | assay | system | setting | MIC
CC(C)CCCCCCCCCCCCc1cc(O)cc(O)c1 | microbial growth, broth dilution | ATCC10031 | – | > 64 µg/mL
CC[P+](CC)(CC)[Au-][S][C@@H]1O[C@H](COC(C)=O)[C@H](OC(C)=O)[C@H](OC(C)=O)[C@H]1OC(C)=O | – | ATCC 700603 | – | > 377 µM
CCn1cc[n+](CC)[c]1[Au-]([Cl])([Cl])[Cl] | broth dilution | DSM 11678 | 20 h, 37 °C | 18.7 µM
CC(C)C[C@H](NC(=O)[C@H](CC(N)=O)NC(=O)[C@H](CCCNC(=N)N)NC(=O)[C@@H](CC(C)C)NC(=O)[C@H](Cc1ccc(C(F)(F)F)cc1)NC(=O)[C@H](CC(=O)O)NC(=O)[C@H](CCCCN)NC(=O)[C@@H](CC(C)C)NC(=O)[C@H](CCCNC(=N)N)NC(=O)[C@H](CCC(N)=O)NC(=O)[C@@H](NC(=O)[C@@H](CC(C)C)NC(=O)[C@H](CCCNC(=N)N)NC(=O)[C@H](CCCCN)NC(=O)[C@H](Cc1ccc2ccccc2c1)NC(=O)CN)C(C)C)C(=O)N[C@H](C(N)=O)C(C)C | broth microdilution | ATCC 13883 | – | 12.5 µM
NC[C@@H]1O[C@H](O[C@H]2[C@@H](O)[C@H](O[C@@H]3[C@@H](O)[C@H](N)C[C@H](N)[C@H]3O[C@H]3O[C@H](CO)[C@@H](CCO)[C@H](O)[C@H]3N)O[C@@H]2CO)[C@H](N)[C@@H](O)[C@@H]1O | – | AG215 | – | 2 to 4 µg/mL
CC(C)CCCCC(=O)N[C@@H](CCN)C(=O)N[C@H](C(=O)N[C@@H](CCN)C(=O)N[C@H]1CCNC(=O)[C@H]([C@@H](C)O)NC(=O)[C@H](CCN)NC(=O)[C@H](CCN)NC(=O)[C@H](CC(C)C)NC(=O)[C@@H](Cc2ccccc2)NC(=O)[C@H](CCN)NC1=O)[C@@H](C)O | broth microdilution | NCTC 418 | 37 °C | 0.5 µg/mL
CC(=NNC(=N)N)c1nnn(-c2ccc(C#CC3(O)CCCCC3)cc2)c1C | microbial growth | ATCC13883 | – | 7.8 µg/mL
c1ccc(CN2CCOCCOCCN(CCCCCCCCCCN3CCOCCOCCN(CCCCCCCCCCN4CCOCCOCCN(Cc5ccccc5)CCOCCOCC4)CCOCCOCC3)CCOCCOCC2)cc1 | – | ESBL, fluoroquinolone-resistant | – | 26 µM
CCCCCCCCCCCCC[C@@H](O)Cc1cc(O)cc(O)c1 | microbial growth, broth dilution | ATCC10031 | – | > 64 µg/mL
CNC(C)C1CCC(N)C(OC2C(N)CC(N)C(OC3OCC(C)(O)C(NC)C3O)C2O)O1 (stereo not drawn) | – | 727 ESBL clinical isolate, TSB | 18 h, 37 °C | 32 µM
CC(C)C(O)C(NC(=O)[C@H](Cc1ccc(O)cc1)NC(=O)C(Cc1ccc(O)c(Cl)c1)[N+](C)(C)C)C(=O)N[C@@H](C)C(=O)O (stereo partly drawn) | – | ATCC 27736 | – | > 100 µM
Oc1c(Br)ccc2cccnc12 | microbial growth, agar dilution | ATCC700603 | – | 71.4 µM
CCOC(=O)c1ccc2c(c1)n(CC)[c]([Au-][Cl])[n+]2CC | broth dilution | DSM 11678 | 20 h, 37 °C | 66.8 µM
CC(C)C[C@@H]1NC(=O)[C@@H](CC(C)C)NC(=O)[C@H](CCN)NC(=O)[C@@H](NC(=O)[C@H](CCN)NC(=O)[C@@H](N)[C@@H](C)O)CCNC(=O)[C@H]([C@@H](C)O)NC(=O)[C@H](CCN)NC(=O)[C@H](CCN)NC1=O | broth microdilution | ATCC 11228, CAMHB with polysorbate-80 | 16 h | > 64 µg/mL
CC1=NN(CNc2ccc(C(=O)O)c(O)c2)C(=O)/C1=N/Nn1c(-c2ccccc2)nc2ccccc2c1=O | microbial growth, broth dilution | – | 24 h | 12.2 µM
CC(C)S[C@H]1[C@H](O)[C@@H](N)[C@@H](O[C@H]2[C@H](O[C@@H]3O[C@H](CO)[C@@H](O[C@H]4O[C@@H](CN)[C@@H](O)[C@H](O)[C@H]4N)[C@H]3O)[C@@H](O)[C@H](N)C[C@@H]2N)O[C@@H]1CO | – | AG215 | – | 8 µg/mL
CC(C)C[C@H](NC(=O)[C@H](CC(N)=O)NC(=O)[C@H](CCCNC(=N)N)NC(=O)[C@@H](CC(C)C)NC(=O)[C@H](Cc1ccc2ccccc2c1)NC(=O)[C@H](CC(=O)O)NC(=O)[C@H](CCCCN)NC(=O)[C@@H](CC(C)C)NC(=O)[C@H](CCCNC(=N)N)NC(=O)[C@H](CCC(N)=O)NC(=O)[C@@H](NC(=O)[C@@H](CC(C)C)NC(=O)[C@H](CCCNC(=N)N)NC(=O)[C@H](CCCCN)NC(=O)[C@H](Cc1ccc(C(F)(F)F)cc1)NC(=O)CN)C(C)C)C(=O)N[C@H](C(N)=O)C(C)C | broth microdilution | ATCC 13883 | – | 12.5 µM
Oc1ccc(Cl)cc1-c1nc2cc(C(F)(F)F)ccc2[nH]1 | – | B9 | – | 25 µM
CC[P+](CC)(CC)[Au-][S][C@@H]1O[C@H](COC(C)=O)[C@@H](O[C@H]2O[C@H](COC(C)=O)[C@@H](OC(C)=O)[C@H](OC(C)=O)[C@H]2OC(C)=O)[C@H](OC(C)=O)[C@H]1OC(C)=O | – | ATCC 700603 | – | > 265 µM
Cc1[nH]c(=O)c(CNC(=O)c2ccc(C(F)(F)F)nc2)c2c1CCCC2 | microbial growth, agar dilution | – | clinical isolate | > 128 µg/mL
CC(=O)N1CCc2cc(S(=O)(=O)N3CCN(c4cc(C(F)(F)F)ccn4)CC3)ccc21 | microbial growth, broth dilution | 10031 | 22 h | 0.25 µg/mL

Some of these lines once more:
Compound | assay | system | setting | MIC
Cc1[nH]c(=O)c(CNC(=O)c2ccc(C(F)(F)F)nc2)c2c1CCCC2 | microbial growth, agar dilution | – | clinical isolate | > 128 µg/mL
CC[P+](CC)(CC)[Au-][S][C@@H]1O[C@H](COC(C)=O)[C@@H](O[C@H]2O[C@H](COC(C)=O)[C@@H](OC(C)=O)[C@H](OC(C)=O)[C@H]2OC(C)=O)[C@H](OC(C)=O)[C@H]1OC(C)=O | – | ATCC 700603 | – | > 265 µM
